Results gathered from unrelated publications.
Lines come from different studies, so protocols differ. “And” joins repeats or separate records; there may be more than shown. ± gives the spread as reported.
Chain of UniProt Q13011 (whole entry, looked up): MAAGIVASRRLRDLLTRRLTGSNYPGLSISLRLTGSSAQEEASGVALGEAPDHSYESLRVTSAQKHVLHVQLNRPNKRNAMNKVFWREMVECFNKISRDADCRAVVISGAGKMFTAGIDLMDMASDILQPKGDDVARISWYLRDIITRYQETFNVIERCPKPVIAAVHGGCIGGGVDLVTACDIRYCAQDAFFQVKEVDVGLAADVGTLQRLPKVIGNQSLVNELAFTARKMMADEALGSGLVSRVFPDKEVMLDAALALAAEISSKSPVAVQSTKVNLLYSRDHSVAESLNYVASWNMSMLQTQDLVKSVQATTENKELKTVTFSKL

The IC50 of CCCN(CCC)[C@H]1CCc2c(F)ccc(O)c2C1 is reported as 0.501 µM (Plasmodium falciparum; W2).
With CO/N=C(\C(=O)N[C@@H]1C(=O)N2C(C(=O)O)=C(COC(C)=O)CS[C@H]12)c1csc(N)n1 the kinact/KI was 52000 ± 4000 M⁻¹ s⁻¹ (PBP1b Streptococcus pneumoniae; Bocillin-FL competition; live Streptococcus pneumoniae cells; 30 min, with: Bocillin-FL 600 nM).
For O=C(Nc1cccnn1)N1CCN([C@@H]2CCOc3cc(C(F)(F)F)ccc32)CC1, the inhibition was 6% (TNF-alpha (human); binding; 20 µM).
Oc1cccc(CN2[C@@H]3CC[C@H]2CN(CCCc2ccccc2)C3)c1 has an EC50 of greater than 50 µM (mu opioid receptor (human); β-arrestin-2 recruitment).
N[C@@H]1C[C@H]1c1ccccc1 (racemic) has a Km of 75.4 µM (H+/organic cation antiporter; cell uptake; hCMEC/D3).
The tissue uptake of CC[C@H](C)[C@H](NC(=O)[C@H](Cc1ccccc1)NC(=O)[C@H](CCC(=O)O)NC(=O)[C@H](CCCNC(=N)N)NC(=O)[C@H](C)NC(=O)[C@H](C)NC(=O)[C@H](CCC(N)=O)NC(=O)[C@H](CCC(=O)O)NC(=O)[C@H](CCC(=O)O)NC(=O)[C@H](CC(C)C)NC(=O)[C@H](Cc1ccc(O)cc1)NC(=O)[C@H](CO)NC(=O)[C@H](CO)NC(=O)[C@@H](NC(=O)[C@H](CC(=O)O)NC(=O)[C@H](CO)NC(=O)[C@@H](NC(=O)[C@H](Cc1ccccc1)NC(=O)[C@@H](NC(=O)CNC(=O)[C@H](CCC(=O)O)NC(=O)[C@H](C)NC(=O)CCc1c[nH]cn1)[C@@H](C)O)[C@@H](C)O)C(C)C)C(=O)N[C@@H](C)C(=O)N[C@@H](Cc1c[nH]c2ccccc12)C(=O)N[C@@H](CC(C)C)C(=O)N[C@H](C(=O)N[C@@H](CCCNC(=N)N)C(=O)NCC(=O)N[C@@H](CCCNC(=N)N)C(=O)N[C@@H](CCCCNC(=O)COCCOCCNC(=O)COCCOCCNC(=O)CC[C@H](NC(=O)CCCCCCCCCCCCCCCCC(=O)O)C(=O)O)C(=O)NCC(=O)NCC(=O)N[C@@H](CO)C(=O)N[C@@H](CCCCNc1c(NCCCCCN(O)C(=O)CCC(=O)NCCCCCN(O)C(=O)CCC(=O)NCCCCCN(O)C(C)=O)c(=O)c1=O)C(=O)O)C(C)C [zirconium-89 labelled] is reported as 1.01 %ID/g (rat, bone marrow; sc, 3 nmol/kg, 24 h, ex vivo).
For COc1cc(Nc2ncc(F)c(Nc3ccc4c(n3)NC(=O)C(C)(C)O4)n2)cc(OC)c1OC, the IC50 was greater than 10 µM (sodium channel site 2).
CC(C)(C)c1ccc(OP(=O)(Oc2ccc(C(C)(C)C)cc2)Oc2ccc(C(C)(C)C)cc2)cc1: carboxylesterase activity “no inhibition” (mouse carboxylesterase; mouse, liver; dose not given, with: MUA substrate).
O=[N+]([O-])O gave a Ki of 21100 µM and 21200 µM (sulfate/chloride exchanger, human; sulfate influx, inhibitor; neutrophils; external site, with: 2 µM nigericin, 85 mM K+).
COc1cccc(OC)c1C(=O)N[C@@H]1C(=O)N2[C@@H]1SC(C)(C)[C@@H]2C(=O)O has a kinact/KI of 4800 ± 520 M⁻¹ s⁻¹ (PBP3 Streptococcus pneumoniae; Bocillin-FL competition; live Streptococcus pneumoniae cells; 30 min, with: Bocillin-FL 600 nM).
CC[C@H](C)[C@@H]1NC(=O)[C@@H]2CCCN2C(=O)[C@H](CC(C)C)NC(=O)[C@H](CC(C)C)NC(=O)CNC(=O)[C@@H](NC(=O)[C@@H](NC(=O)[C@H](CC(=O)O)NC(=O)CNC(=O)[C@@H](NC(=O)[C@H](C)NC(=O)CNC(=O)[C@H](CCCCN)NC(=O)[C@H](CC(C)C)NC(=O)[C@H](CC(C)C)NC(=O)[C@H](CCCCN)NC(=O)CNC(=O)[C@@H](NC(=O)[C@@H](N)CC(C)C)C(C)C)C(C)C)C(C)C)CSSC[C@@H](C(=O)O)NC1=O — result for “log2 fold change”: -1.54 (RNA-seq, measured: Irf1; mouse, traumatic brain injury model, frontal cortex and hippocampus; dose not given; baseline: TBI alone).
With Oc1cccc(N2[C@@H]3CC[C@H]2CN(CCCc2ccccc2)C3)c1 the Emax was 0% (mu opioid receptor (human); β-arrestin-2 recruitment).
For CC1(C)S[C@@H]2[C@H](NC(=O)[C@H](N)c3ccccc3)C(=O)N2[C@H]1C(=O)O, the kinact/KI was 77000 ± 14000 M⁻¹ s⁻¹ (PBP3 Streptococcus pneumoniae; Bocillin-FL competition; live Streptococcus pneumoniae cells; 30 min, with: Bocillin-FL 600 nM).
Cc1cc(F)cc2c(CCC(=O)N[C@@H]3C(=O)NC[C@H]3O)c(-c3ccc(F)cc3)[nH]c12 has an inhibition of -6% (GABAA central benzodiazepine site; binding; 10 µM, with: flunitrazepam).
CCCCCCCCCCCCCCCC(=O)N[C@@H](C)C(=O)N[C@@H](CCCNC(=N)N)C(=O)N[C@@H](CCCCN)C(=O)N[C@@H](CCCCN)C(=O)N[C@@H](CO)C(=O)N[C@@H](CC(C)C)C(=O)N[C@@H](CCC(N)=O)C(=O)N[C@@H](CO)C(=O)N[C@@H](CC(C)C)C(=O)N[C@@H](CCC(N)=O)C(=O)N[C@@H](CO)C(=O)N[C@H](C(=O)N[C@H](C(=O)N[C@@H](Cc1c[nH]cn1)C(N)=O)C(C)C)[C@@H](C)O gave a BRET50 of 10 ± 0.7 [GFP10]/[RlucII] (NTSR1-RlucII and APJ-GFP10 heteromer; BRET2 titration; HEK293; 50 µM).
For N#CC(=Cc1ccc(O)cc1)C(=O)O, the Ki was 252 µM and 250 µM (sulfate/chloride exchanger, human; sulfate influx, inhibitor; neutrophils; with: 2 µM nigericin, 85 mM K+).
The inhibition of C[C@H](C(=O)N[C@H]1COc2ccccc2[C@@H]1S(C)(=O)=O)c1ccc(F)cc1 is reported as -10% (adrenergic alpha1 receptor, rat; binding; 10 µM, Eurofins selectivity panel).
C[C@H]1CN(c2n[nH]c3nc(N[C@H]4CC[C@H](NS(=O)(=O)CCC(F)(F)F)CC4)ncc23)CCO1 gave a remaining binding of 1.01 (Delta(3,5)-Delta(2,4)-dienoyl-CoA isomerase, mitochondrial (Homo sapiens, UniProt Q13011); Kinobeads competition, measured: ECH1; 0.16 µM, unit not given; baseline: vehicle).
CC[C@]1(O)C[C@H]2CN(CCc3c([nH]c4ccccc34)[C@@](C(=O)OC)(c3cc4c(cc3OC)N(C=O)[C@H]3[C@@](O)(C(=O)OC)[C@H](OC(C)=O)[C@]5(CC)C=CCN6CC[C@]43[C@@H]65)C2)C1 has an IC50 of 1.58 µM (Plasmodium falciparum; HB3).
With CCN1CCN(C(=O)N[C@@H](C(=O)N[C@@H]2C(=O)N3[C@@H]2SC(C)(C)[C@@H]3C(=O)O)c2ccccc2)C(=O)C1=O the kinact/KI was 2500 ± 620 M⁻¹ s⁻¹ (PBP1b Streptococcus pneumoniae; Bocillin-FL competition; live Streptococcus pneumoniae cells; 30 min, with: Bocillin-FL 600 nM).
The Km of O=[Se](=O)(O)O is reported as 61700 µM (sulfate/chloride exchanger, human; neutrophils; external binding site).
With CO[C@H]1C[C@@H]2CC[C@@H](C)[C@@](O)(O2)C(=O)C(=O)N2CCCC[C@H]2C(=O)O[C@H]([C@H](C)C[C@@H]2CC[C@@H](OC(=O)NCCOCCOCCOCCOCCOCCOCCOCCOCCC(=O)N3CCc4cc(Cn5nc(-c6ccc7oc(N)nc7c6)c6c(N)ncnc65)ccc4C3)[C@H](OC)C2)C[C@@H](O)[C@H](C)/C=C(\C)[C@@H](O)[C@@H](OC)C(=O)[C@H](C)C[C@H](C)/C=C/C=C/C=C/1C the headache incidence was 0% (patients with advanced solid tumours; intravenous, 10 mg weekly, grade 3 or higher).
For CN1C[C@H]2CC[C@@H](C1)N2c1cccc(O)c1, the Emax was 0% (mu opioid receptor (human); β-arrestin-2 recruitment).
The kinact/KI of CC1(C)S[C@@H]2[C@H](/N=C/N3CCCCCC3)C(=O)N2[C@H]1C(=O)O is reported as 56 ± 18 M⁻¹ s⁻¹ (PBP1b Streptococcus pneumoniae; Bocillin-FL competition; live Streptococcus pneumoniae cells; 30 min, with: Bocillin-FL 600 nM).
With c1ccc(C(NCCNC(c2ccccc2)c2ccccc2)c2ccccc2)cc1 the inhibition was 85% (L-type calcium channel, rat, Dihydropyridine site; binding; 10 µM, Eurofins selectivity panel).
For Cc1onc(-c2c(Cl)cccc2Cl)c1C(=O)N[C@@H]1C(=O)N2[C@@H]1SC(C)(C)[C@@H]2C(=O)O, the kinact/KI was 2800 ± 780 M⁻¹ s⁻¹ (PBP1b Streptococcus pneumoniae; Bocillin-FL competition; live Streptococcus pneumoniae cells; 30 min, with: Bocillin-FL 600 nM).
For Oc1cccc(N2[C@@H]3CC[C@H]2CN(Cc2ccccc2)C3)c1, the EC50 was greater than 50 µM (mu opioid receptor (human); β-arrestin-2 recruitment).
The kinact/Ki of Cc1cc(C)n2c1C=C1C=CC(CCC(=O)Nc3ccc(OCC(=O)N[C@@H]4C(=O)N5[C@@H]4SC(C)(C)[C@@H]5C(=O)[O-])cc3)=[N+]1[B-]2(F)F.[Na+] is reported as 52300 ± 9400 M⁻¹ s⁻¹ (PBP3, Streptococcus pneumoniae; inhibitor; live Streptococcus pneumoniae cells).
Oc1cccc(N2C[C@H]3CC[C@@H](C2)N3CCCc2ccccc2)c1 gave an Emax of 18.5 ± 0.4% (mu opioid receptor (human); β-arrestin-2 recruitment).
With O=C1CCOc2ccccc21 the EC50 was 6.84 µM (Aedes aegypti OR6 with Orco; agonist, two-electrode voltage clamp; Xenopus oocytes).
The Km of CC(=O)SCC[N+](C)(C)C is reported as 70 µM (acetylcholinesterase, mammalian red blood cell; enzyme activity, substrate, Ellman; red blood cell ghosts; pH 7.4).
CC1(C)S[C@@H]2[C@H](NC(=O)Cc3ccccc3)C(=O)N2[C@H]1C(=O)O has a kinact/KI of 180000 ± 55000 M⁻¹ s⁻¹ (PBP3 Streptococcus pneumoniae; Bocillin-FL competition; live Streptococcus pneumoniae cells; 30 min, with: Bocillin-FL 600 nM).

For quick reference, copied from above:
The Km of CC(=O)SCC[N+](C)(C)C is reported as 70 µM (acetylcholinesterase, mammalian red blood cell; enzyme activity, substrate, Ellman; red blood cell ghosts; pH 7.4).
With CCN1CCN(C(=O)N[C@@H](C(=O)N[C@@H]2C(=O)N3[C@@H]2SC(C)(C)[C@@H]3C(=O)O)c2ccccc2)C(=O)C1=O the kinact/KI was 2500 ± 620 M⁻¹ s⁻¹ (PBP1b Streptococcus pneumoniae; Bocillin-FL competition; live Streptococcus pneumoniae cells; 30 min, with: Bocillin-FL 600 nM).
For Cc1onc(-c2c(Cl)cccc2Cl)c1C(=O)N[C@@H]1C(=O)N2[C@@H]1SC(C)(C)[C@@H]2C(=O)O, the kinact/KI was 2800 ± 780 M⁻¹ s⁻¹ (PBP1b Streptococcus pneumoniae; Bocillin-FL competition; live Streptococcus pneumoniae cells; 30 min, with: Bocillin-FL 600 nM).
The kinact/KI of CC1(C)S[C@@H]2[C@H](/N=C/N3CCCCCC3)C(=O)N2[C@H]1C(=O)O is reported as 56 ± 18 M⁻¹ s⁻¹ (PBP1b Streptococcus pneumoniae; Bocillin-FL competition; live Streptococcus pneumoniae cells; 30 min, with: Bocillin-FL 600 nM).
For N#CC(=Cc1ccc(O)cc1)C(=O)O, the Ki was 252 µM and 250 µM (sulfate/chloride exchanger, human; sulfate influx, inhibitor; neutrophils; with: 2 µM nigericin, 85 mM K+).
